Measurements from different studies.
Lines come from different studies, so protocols differ. ± marks the error that the study gave.

For `COc1cccc(Oc2ccccc2NC(=O)CNC(=O)c2cccc3ccccc23)c1`, the albumin/globulin ratio was 1.3 (esterase-deficient SCID mice, male; oral, 40 mg/kg/day, 14 days, toxicity study).
`N[C@@H]1c2ccccc2OC12CCN(c1cnc3c(N4CCCc5ncccc54)n[nH]c3n1)CC2` — result for “incidence grade ≥3 serious TEAE”: 28.6% (patients advanced metastatic solid tumours; oral, dose not given, all patients).
`O=C(O)CCCOc1ccc(F)cc1-c1cc(-c2ccccc2C(F)(F)F)n(-c2ccccc2)n1` gave a prothrombin time of 9.7 ± 0.3 s (Crl:CD(SD) rat, female; intravenous, 25 µg/kg, 1 days post-dose).
Under “dose fraction in permeate”, `Oc1c(Cl)cc2c(c1Cl)Oc1cc(Cl)c(Cl)cc1O2` is recorded as 18.6% (ultrafiltration; cow milk whey; 20 nM nominal in whole milk).
`C[C@@H](NC(=O)N1C(=O)[C@H](Cc2ccnc(N)c2)[C@H]1C(=O)O)C1CCCCC1` — result for “incidence of elevated neutrophil”: 0% (healthy adult Chinese volunteers; continuous intravenous infusion, 1.5 mg/kg/h, 5-day infusion, CTCAE 5.0 grading).
`C[C@]1(CO)Cc2ncn(-c3ccc(C#N)c(Cl)c3)c2C(=O)O1` — result for “subjects with severe TEAEs”: 0% (human; 80 mg single dose).
`CCc1ccc(CC/C=C/c2ccc3c(c2)C(=O)CC3)cc1` has a Basophil percentage of 0.27% (Sprague-Dawley rat, male; oral, 450 mg/kg/day, 14 days).
With `Clc1ccc(-c2ccccc2)cc1` the alkaline phosphatase was 122 ± 28 U/L (Sprague-Dawley rats, female, serum; inhalation, 23 µg/rat, 2 h after exposure).
`O=C(O)CCC(CP(=O)(O)O)C(=O)O` (stereo not shown) has a measured concentration of 8.84 ± 0.18 µg/mL (rat plasma; 8 µg/mL, 4 h, room temperature, bench-top stability).
Under “blood bilirubin increase incidence”, `Cn1ncc(-c2nc(N[C@H]3CC[C@H](N)CC3)ncc2Cl)c1CC1CC1` is recorded as 6.7% (phase I dose escalation; human patients; dose not given, treatment-related grade 3 or higher).
For `CO[C@H]1C[C@@H]2CC[C@@H](C)[C@@](O)(O2)C(=O)C(=O)N2CCCC[C@H]2C(=O)O[C@H]([C@H](C)C[C@@H]2CC[C@@H](OC(=O)NCCOCCOCCOCCOCCOCCOCCOCCOCCC(=O)N3CCc4cc(Cn5nc(-c6ccc7oc(N)nc7c6)c6c(N)ncnc65)ccc4C3)[C@H](OC)C2)C[C@@H](O)[C@H](C)/C=C(\C)[C@@H](O)[C@@H](OC)C(=O)[C@H](C)C[C@H](C)/C=C/C=C/C=C/1C`, “AE leading to dose reduction” read 8.3% (patients with advanced solid tumours; intravenous, 12 mg weekly, grade 3 or higher).
`O=C(Nc1ccccc1)C1CCN(C(=O)Oc2cccnc2)CC1` — result for “subjects with Haematoma adverse event”: 14.3% (adverse event reporting; healthy women; oral, 60 mg).
`COc1cc2c(Oc3ccc4[nH]c(C)cc4c3F)ccnc2cc1OCC1(N)CC1` — result for “weight loss incidence”: 25% (paediatric refractory sarcoma patients; 8 mg).

Excerpt of the above:
`C[C@]1(CO)Cc2ncn(-c3ccc(C#N)c(Cl)c3)c2C(=O)O1` — result for “subjects with severe TEAEs”: 0% (human; 80 mg single dose).
`N[C@@H]1c2ccccc2OC12CCN(c1cnc3c(N4CCCc5ncccc54)n[nH]c3n1)CC2` — result for “incidence grade ≥3 serious TEAE”: 28.6% (patients advanced metastatic solid tumours; oral, dose not given, all patients).
